Measurements collected from several papers.
Each numbered part is a random draw from the data of one study; scales do not carry over between parts.
Sequence of UniProt P48730 (whole entry, looked up): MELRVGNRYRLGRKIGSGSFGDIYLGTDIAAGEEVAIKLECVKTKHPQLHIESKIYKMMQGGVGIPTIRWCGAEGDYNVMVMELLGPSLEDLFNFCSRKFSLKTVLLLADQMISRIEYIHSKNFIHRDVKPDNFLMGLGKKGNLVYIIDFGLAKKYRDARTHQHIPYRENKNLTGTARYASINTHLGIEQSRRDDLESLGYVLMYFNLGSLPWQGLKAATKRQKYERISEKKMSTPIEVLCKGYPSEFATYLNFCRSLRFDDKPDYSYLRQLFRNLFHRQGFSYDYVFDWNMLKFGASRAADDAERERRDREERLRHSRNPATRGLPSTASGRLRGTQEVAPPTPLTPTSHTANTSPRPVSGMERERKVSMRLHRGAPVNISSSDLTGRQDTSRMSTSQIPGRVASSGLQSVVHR

Series 1
Target: Hepatocyte nuclear factor 3-alpha (Foxa1, Mus musculus, UniProt P35582, residues 1-468, full length assumed)
Technique: EMSA with sequencing
Form: double-stranded DNA, one strand shown
Matrix: in vitro
Concentration: 10 and 20 nM
Setting: whole designed probe, mean of two concentrations, ends assumed
Reference: negative control set to 0
Reading: higher = stronger binding
Shared flanks, not repeated: GTGAGCGGTGCCCATTGATGGGGAAC … TTTCACTGGGATCGTGGGGAC
Residues (chain): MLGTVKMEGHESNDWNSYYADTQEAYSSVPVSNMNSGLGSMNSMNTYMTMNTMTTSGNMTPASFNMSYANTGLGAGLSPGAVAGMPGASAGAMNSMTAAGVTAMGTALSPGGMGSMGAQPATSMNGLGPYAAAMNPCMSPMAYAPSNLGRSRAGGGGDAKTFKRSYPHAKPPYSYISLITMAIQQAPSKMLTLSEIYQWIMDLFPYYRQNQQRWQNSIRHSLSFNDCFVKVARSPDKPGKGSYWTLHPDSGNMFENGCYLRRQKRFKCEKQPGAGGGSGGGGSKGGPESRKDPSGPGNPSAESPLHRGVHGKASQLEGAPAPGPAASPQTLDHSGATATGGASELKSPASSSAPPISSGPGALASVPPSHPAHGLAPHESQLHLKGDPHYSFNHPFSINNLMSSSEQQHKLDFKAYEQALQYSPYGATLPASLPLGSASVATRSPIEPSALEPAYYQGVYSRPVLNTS
Sequence | normalised bound fraction [ratio]
GACATGTTAAGGCTTGTTCTATTTATTAGAAAATATATAAAGAGTTCTTGGCTTAAGAACTCTTCTGGCTATCAGCTCCCTGATGTGAAAAAAGTAATTTGCAAGGGGTAGCATGGAGTCTTACTCCCGTGTGACAGACAGCTTAAGAAAGACAATTGGACATCATGTGACTACATGATTCAAGCTAAAGTCC | -0.0334
TCATGAGATTGTATTTACTTTTGTTAAGTGTAAACACTTCACAAAAGTGTTGTGTTTACTTTTGTTAAGTGTAAACACTTCACAAAAGTGTTGTGTTTACTTTTGTTAAGTGTAAACACTTCACAAAAGTGTTGTGTTTACTTTTAAGTGTAAACACTTCTTTTGTAATACTCTTTTGTAGTATTTTTCAACT | 0.563
CCTGAGTTGGTGGAGCCACAAAAAGGAATCCCTGAGTCACTGCTTAGTCACTGGGCTGCCTTGGAGAGTTGATGAGACCTCAGCAAACTTTGTGTAATTTAAGAAATGAACGCTTACATTTTAACTACCGGAACTTGGAGGTTTGTTTGTTACTGCAACAAAGGTTAGCTTTATTGACTAATGCACTGTAACA | 0.219
ATCTTCCCCCTCTTCCTTGCCCCACCAGCTCACCTTCCCGGGTTATTTGCAGATAGGAAAATAAATAAAGCCGGCATTCGTTAACCCTCTTCACGCGCATACTGCTGTTTGCTCTGGATCTAACATGGTCCTGATGAATCATGAGGCTCCGGGAGAGCAAAGCACCGTGTCAGGGCCATGATCCGGGGTGGCC | 0.358
ATCTTCCCCCTCTTCCTTGCCCCACCAGCTCACCTTCCCGGGTTATTTGCAGATAGGAAAATAAATAAAGCCGGCATTCGTTAACCCTCTTCACGCGCATACTGCCAAAGTAAACAGATCTAACATGGTCCTTTGGCGACGCCAGGCTCCGGGAGAGCAAAGCACCGTGTCAGGGCCATGATCCGGGGTGGCC | 0.494
TTTTTTCTGTACAGGGAAAAATAGTGAATATTTCAAAATTGTGAAACAAAGAGTCTCTGTGGCAACTGTTGCATAACACTCATTAGACAATATGCAAACAAATGAGTGTGTCTGTGTTCCAATAAAACTGTATTTACAAAAGCAGAAGGCCACCCATGTGCCAATGTCCAAAGTTTCTCAACCAACCCCTGGT | 0.319
GAAGGAAATAATGGAGCCAACCATGCATATAACCTCAGGGAGAACATTCTAGGTAGAGGGAACAGCAAGTGCAAAGGCCCTGAAGTGGGGGTTTGTTTACCTTCTGCACACAGGCCAGTACAATGTTGCACAATTGGAATGGATGGGAAATGTAAAAGAGAGAAGTTGAAAAGGCCAGGTGCAGTGGCTCATG | 0.407
ATCTTCCCCCTCTTCCTTGCCCCACCAGCTCCATTCGCCCGGTTATTTGCAGATAGGAAAATAAATAAAGCCGGCATTCGTTAACCCTCTTCTGGCGCAAACTGCTGTTTGCTCTGGATGAATCATGGTCCTTTGGCGACGCCAGGCTCCGGGAGAGCAAAGCACCGTGTCAGGGCCATGATCCGGGGTGGCC | 0.329

Series 2
Target: RNA binding protein fox-1 homolog 2, RRM domain, GST-SBP tag (RBFOX2, Homo sapiens, UniProt O43251-10, residues 100-194)
Technique: RNA Bind-n-Seq
Form: RNA
Matrix: in vitro
Concentration: 365 nM
Setting: natural RNA segment, single round, ends assumed
Reference: no-protein control
Reading: higher = stronger binding
Shared flanks, not repeated: GGGAGUUCUACAGUCCGACGAUC … UGGAAUUCUCGGGUGCCAA
Target sequence (chain): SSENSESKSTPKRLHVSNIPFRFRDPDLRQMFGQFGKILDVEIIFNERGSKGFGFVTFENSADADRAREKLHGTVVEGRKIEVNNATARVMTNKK
Sequence | RBNS enrichment (R)
GCCACGCAGGAUCCCGUGUCCUGCAGACGAGAGCGGCUUUCUUGUUUGUGGGAUUUUGUUUGGACACAGAGUUGUUUUGCAAUCAUGGUGUGCUUCCCAGGGACAGAGCG | 0.777
ACAAAGAAAUCCUUCUACCUGAGAAGGCAGAAAUAGACCUGCCCGUGGGAGGAGCAUCAAGGGGCCUGUCUCUAGGAGCUGUGUGGUUCUGGGCAGUGGUCUGUUCACCC | 0.322
UGUCUGGAAAAGCACUUUACAGAUGAGAUUCCCUCUCCUCCCCCACCUUCAAGCACCCUGUUCCCUCUUUCUUUCUUUUGUGUUGGAUUUGUUUAAAAACCAAAUAAGCA | 0.961
AUGGUUAAAAUCGGUUUGAUAGCACCAUGGGACAUUUUUCUAACAAAAAUAAAUGCAUGAAGAGACAUAGCCUUUUAGUUUUGCUAAUUGUGAAAUGGAAAUGCUUUACA | 2.47
GAAUGCACACAGGUCUUCAGGGAGUUUGACUGUCCUUACCCAGAGUCCUCUCUGAUGCAGCUGACCUACCUGGGCAUGACAAGCCUGUCAUCUCGCCUGGGGACCUGGUU | 0.705
AGCCUCUUAAUUCUUUGAAGAACUAAAAAAUUAGGAAACAAAGUUCUAGCAUUUACAAAACUCAGAUCUCAAAGCUCUGCUUGUAUUUGUGAUAUUUCAUUUGCUUAACU | 0.407
AAACCUAAAGAAAUUACUUUUUUGCUAAAAAAAAAAAAAUCAAAUGAUUUAACAGUUUCUGUGUAUGUUAAACUUUCAAGUGUUUUUUUAAAUCAUAAUGUGUAAUAAUU | 1.96
GCAAGAGCCAUGUUUUUGAGAAGGUUCUGGAUCUCUGACUCCAUCCUGACUGUUUAGUAAGAGCAUGCUUACACCCUACUGUGAAAAGGGGAGGGGAUGUGGUAAGCGGA | 11.8

Series 3
Target: Histone acetyltransferase KAT6A, winged helix 2, GST fusion (KAT6A, Homo sapiens, UniProt Q92794, residues 85-181)
Technique: protein binding microarray
Form: double-stranded DNA, one strand shown
Matrix: in vitro
Concentration: not given
Setting: 8-mer, flanks averaged, mean of 2 arrays, mostly near background
Reference: not given
Reading: higher = stronger binding
Target sequence (chain): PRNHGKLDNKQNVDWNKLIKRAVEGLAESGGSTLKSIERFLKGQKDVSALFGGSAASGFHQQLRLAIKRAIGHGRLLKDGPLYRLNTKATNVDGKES
Sequence | E-score
CAGCGTTA | -0.194
TAGCCTCA | 0.0406
CCCGCACG | 0.0857
CACAATGG | -0.00504
AAACTCCC | 0.0103
AATGTTCG | -0.0593
ACGGCTGG | -0.00915
CTTATACC | -0.131

Single results of other studies
Structure (SMILES) | target | assay | conditions | how to read | quantity | value
COc1cc2nccc(Oc3ccc(NC(=S)NC(=O)c4ccccc4C)cc3)c2cc1OC | Casein kinase I isoform delta (CSNK1D, Homo sapiens, UniProt P48730) | enzyme activity, inhibitor | 0.5 µM | reference: control | remaining activity | 212%

Repeated from above (series 2):
Sequence | RBNS enrichment (R)
GAAUGCACACAGGUCUUCAGGGAGUUUGACUGUCCUUACCCAGAGUCCUCUCUGAUGCAGCUGACCUACCUGGGCAUGACAAGCCUGUCAUCUCGCCUGGGGACCUGGUU | 0.705
AUGGUUAAAAUCGGUUUGAUAGCACCAUGGGACAUUUUUCUAACAAAAAUAAAUGCAUGAAGAGACAUAGCCUUUUAGUUUUGCUAAUUGUGAAAUGGAAAUGCUUUACA | 2.47
GCAAGAGCCAUGUUUUUGAGAAGGUUCUGGAUCUCUGACUCCAUCCUGACUGUUUAGUAAGAGCAUGCUUACACCCUACUGUGAAAAGGGGAGGGGAUGUGGUAAGCGGA | 11.8
